# Measured values gathered from unrelated publications.
# Numbered parts are unrelated; each lists some results of a single study.

# Set 1 — technique: protein binding microarray; form: double-stranded DNA, one strand shown; medium: in vitro; tested at: not given; relative to: not given; direction: higher = stronger binding
# Target: Histone acetyltransferase KAT6A, both winged helices, GST fusion (KAT6A, Homo sapiens, UniProt Q92794, residues 1-181)
# Setting: 8-mer, flanks averaged, mean of 2 arrays, mostly near background
# Construct (chain): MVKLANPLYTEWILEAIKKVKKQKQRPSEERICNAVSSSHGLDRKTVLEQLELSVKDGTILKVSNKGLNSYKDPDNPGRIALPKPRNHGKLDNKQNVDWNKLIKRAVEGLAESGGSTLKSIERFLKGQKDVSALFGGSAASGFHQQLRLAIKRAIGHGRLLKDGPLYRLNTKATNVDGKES
Strand,E-score
CGCGATCC,0.204
GAACCTAC,-0.196
CGAGTGAC,-0.0282
TCTAATAA,-0.00641
CAGGACCC,-0.0612
AGTTAGTA,-0.0653
AGCGTAGG,0.0511
ATAGAGAG,-0.232
ACTCACCT,-0.264
GAAGCATC,-0.148
TACTGCCA,-0.181
ACTACAGC,-0.129
AAGTGGTG,-0.146
GTACGCCA,0.076
CACCCCCC,-0.014
CAAGTAAA,-0.0284
AGAGTGCA,-0.15

# Set 2 — technique: RNA Bind-n-Seq; form: RNA; medium: in vitro; tested at: 365 nM; relative to: no-protein control; direction: higher = stronger binding
# Target: RNA binding protein fox-1 homolog 2, RRM domain, GST-SBP tag (RBFOX2, Homo sapiens, UniProt O43251-10, residues 100-194)
# Setting: natural RNA segment, single round, ends assumed
# Shared flanks, not repeated: GGGAGUUCUACAGUCCGACGAUC … UGGAAUUCUCGGGUGCCAA
# Residues (chain): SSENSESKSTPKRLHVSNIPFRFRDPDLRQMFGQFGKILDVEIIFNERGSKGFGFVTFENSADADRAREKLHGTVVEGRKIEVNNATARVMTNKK
Strand,RBNS enrichment (R)
CAACUUCAGAAAUCUUGAAGGCAGGCGCAAACGGGCAUAAAUUCCAGGGACCACUGGGUGAGAGAGGAAUAAGGCCCAGAGCGAGGAAAGGAUUUUACCAAAGCAUCAAU,2.43
UUGGUGGGGUUCACUGCUCUGUUGUCCUGCUCUCUAACCACAGACAGGUAAGGAUUACCUUCUCUAGUGGUUCUUGCGAUUUGUCUGCCUAGGUGUGCUCCAGGUUGCCU,0.789
CACGGCGUCCCGCAGAGCCUAGUCUGAACCACCCCAUGCCCACCCUGUGUUCCCGAGCGCUUCCAGGACUCAUCGUGAGCAGCAGCAUGGAGGCCCCUUCCUGCUGACCU,0.517
UUUUAUUUCAUUUCUAAGAUUUUUUUUUUAACACUCCGUAUUCUGGAGCAUUUUUUUACAAUUUGGAUCUCUGCCAGUAUUGUUAAAAUUUUAUUAAAAUCAUCCAGCAC,1.05
UCUGAGACCUUGAGGGACCCAGACCUUUGGGUCCAAGAGUUUCCCAAACAGCCACGCCUCUCAGGAACCCACCUGGCGGUUCCGUGAGCUCAGGCAGGCCUGACCCGGCG,0.358
CACCUGGCCUGUAGCAAAUAAUUUUUAAGCAUUCUCAAGAUGUAUGAUGUUGGGUUUAACAUCAUAUGUUCACAGUGUUUUAAAUAAGAAAUAAUCUGUCUUUAGUAUAC,0.523
GCACCACAGCUACUCAAGAAGAUCAAAUUCAGGACAUAAACUUUAUUGAACAUAAUAACCAGUGUUUUUUAAAGACUUUUUUGUCAGGGUGCAGUAAAAUUCUCCAAUUA,0.365
AAUGCCACCGUUUCCUCUAAGACUGGCCAUUAAUGUUUCGUCGGCGGAAGUCGCUCUCCUGGGAGGCAAUGAGCAUUGCCGUAUAGGUUCCUGUUUAUUAGAGAGUAUGC,0.408
UUGCUUCCCUCUCCUGUCUUUCCCACUGGAGCCGCCCAAGCUUGUAGGUGGGUGGUGUGCAUAGGCCACGUGUGCCCCACAUAUGCAGGGGGUGCCCCACACAGCUAGAG,1.22
GGGAGCAAAAGAAAAAUUUUUGUACAUUUUCUUCAUUUAAUCAGAAUGGUUUACAUAUUUCUGCAAAUGGAGAAAAUGUAAAUAUAAACCCAUGACCAUUUACUAAGUGA,0.739
CAUAUUGUGUGAUACUUGAAGAGAUAAAAGGGACUUACCAGCCCUUAAUUGAAAUCUAAGCUUUUUACCGCUUUCCCCUCCUUGCCCUCUCUCCUCCCUUCUGCCCUCCU,0.701
GGUACCUAACUUGGGCACAGCUGUAACUGAAGACCUAAUGAAGUAGUCAGAUGCUUACAACUAUUUAUAAUGCAUCAAUUUGAACUUAGAAGGUAGGAGAUCAGAUCAUA,0.64

# Set 3 — technique: RNA Bind-n-Seq; form: RNA; medium: in vitro; tested at: 200 nM; setting: whole 134-nt RNA, ends assumed; together with: 150 mM KCl; relative to: input library; direction: higher = stronger binding
# Target: Ras GTPase-activating protein-binding protein 1, full length (G3BP1, Homo sapiens, UniProt Q13283)
# Sequence of UniProt Q13283 (whole entry, looked up): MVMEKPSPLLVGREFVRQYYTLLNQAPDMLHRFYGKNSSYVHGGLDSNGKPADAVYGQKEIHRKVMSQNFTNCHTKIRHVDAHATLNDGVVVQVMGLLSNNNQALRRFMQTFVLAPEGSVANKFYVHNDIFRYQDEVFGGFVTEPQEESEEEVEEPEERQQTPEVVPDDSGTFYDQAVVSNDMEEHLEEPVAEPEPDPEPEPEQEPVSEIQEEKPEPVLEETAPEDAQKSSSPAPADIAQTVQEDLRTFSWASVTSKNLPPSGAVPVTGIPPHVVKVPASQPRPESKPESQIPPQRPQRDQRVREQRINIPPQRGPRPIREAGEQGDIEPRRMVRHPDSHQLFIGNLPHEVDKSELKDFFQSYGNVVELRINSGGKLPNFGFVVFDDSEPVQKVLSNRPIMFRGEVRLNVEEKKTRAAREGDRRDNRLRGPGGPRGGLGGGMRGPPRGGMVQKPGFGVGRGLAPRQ
# Shared flanks, not repeated: GGGAGUUCUACAGUCCGACGAUC … UGGAAUUCUCGGGUGUCAAGG
Strand,log2 enrichment
CCUGUGCUACACAUCGUAUGUACCGAAUCGGAAAAAAGGGGAAAAAAGGGGAAAAAAGGGGAAAGUAUUAUGUUACGCCGUUCGGAUCUG,-0.487
CACAGACAACACGCACCCACACAGACACAGAGGGAAGGGGUUGGGAUGGGGACAGGGUGCACAGCAGGGCAAAGUAGGACCCCAGCCCCU,2
UCUUCAGAGGCCCCACAGUAUCAAAUAUCCGCCUGGCUGGAUUAGAGUAUGUUCUGCACUUCACUGCACUGAAUGGGAAGAUUUACUUUC,-0.12
CUGUGCUACACAUCGUAUGUACCGAAUCGGCCCCCCCGGGCCCCCCCGGGGCCCCCCCGGGAAAGUAUUAUGUUACGCCGUUCGGAUCUG,-0.869
ACCAUGCAGGUGGGCAUCUAUGGGAAGUGGGGCAAGGGGGGGAUAGGGAGGGGGGUAACACUUUGGGAACAGGUGGUCCCAGGUCGUUUC,1.37
GCAGGAAGUAAAAACAAAUGGAAAUGCUUCGGAUAGUGGCAGGGGUGGGGGUUGCUAAGGAAAAGGUGGGAUGGGAGUGGGUAAAGAGUU,1.08
UUCCUCAGGGUAGAACUGGAUGACUCAGACGUGUUCCAUGGUGAACCUGAACCUGAGGAGCUGCCUGGAGGUAAGGGCCCUGAACUGUCC,-2.48
GCAGGAAGUAAAAACAAAUGGAAAUGCUUCGGAUAGUGGCAGGGGUGGGGGUUGCUAAGGAAAGGGUGGGAUGGGAGUGGGUGAAGAGUU,0.929
GUCCUGUGCUACACAUCGUAUGUACCGAAUCGGGGCCCCCGGGCCCCCGGCCCCCGGGAAAGUAUUAUGUUACGCCGUUCGGAUCUGCAC,-0.293
CUCAAGUCCUGUGCUACACAUCGUAUGUACCGAAUCGGCGGGGCGGGGCGGGGAAAGUAUUAUGUUACGCCGUUCGGAUCUGCACUUCCA,1.05
CCUGUGCUACACAUCGUAUGUACCGAAUCGGGGUUUUUUGGGUUUUUUGGUUUUUUGGGGAAAGUAUUAUGUUACGCCGUUCGGAUCUGC,-0.794
AAGUCCUGUGCUACACAUCGUAUGUACCGAAUCGGAAAGGUUUUUGGUUUUUUUGGAAAGUAUUAUGUUACGCCGUUCGGAUCUGCACUU,-1.45
GCAGGAAGUAAAAACAAAUGGAAAUGCUUCGGAUAGUGGCAGGGGUGGGGGUUGCUAAGGAAAGGGUGGGAUGGGAGUGGGGAAAGAGUU,1.41
CUCAAGUCCUGUGCUACACAUCGUAUGUACCGAAUCGGGAGGGAGGGUUUGGGAAAGUAUUAUGUUACGCCGUUCGGAUCUGCACUUCCA,1.27

# Set 4 — technique: RNA Bind-n-Seq; form: RNA; medium: in vitro; tested at: not given; relative to: input RNA pool; direction: higher = stronger binding
# Target: RING finger protein unkempt homolog, zinc fingers 1-6, GST-SBP tag (UNK, Homo sapiens, UniProt Q9C0B0, residues 30-357)
# Sequence of UniProt Q9C0B0 (30-357, looked up): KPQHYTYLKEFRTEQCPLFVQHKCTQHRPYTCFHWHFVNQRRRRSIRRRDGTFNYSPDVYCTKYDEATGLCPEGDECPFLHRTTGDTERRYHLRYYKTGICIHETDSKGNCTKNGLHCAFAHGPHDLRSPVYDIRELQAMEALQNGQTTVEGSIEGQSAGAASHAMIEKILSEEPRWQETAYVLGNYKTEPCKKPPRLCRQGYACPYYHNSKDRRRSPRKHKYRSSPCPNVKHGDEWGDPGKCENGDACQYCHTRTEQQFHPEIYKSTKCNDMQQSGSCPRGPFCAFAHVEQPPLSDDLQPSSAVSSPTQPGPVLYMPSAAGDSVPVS
# Setting: RNA with constant flanks, human and mouse sites, ends assumed
# Shared flanks, not repeated: GGGAGUUCUACAGUCCGACGAUC … CAACAGAGGAUUGAGCAUCA
Strand,bound/input enrichment [ratio]
CUCACGGACUGGACGAUCUUUCCACUGGACACUGAGGAUGCAGUGUGCAGCCACCUGGGGGGCUGGGGACACCGUGACAGUGGCCACCAUGAUGAAGCCUGGGCCCACAACUCAUCCAAC,0.151
UUACGCUCUCCCGCGGCACGUCCGCGAGGACUUGAAGUCCUGAGCGCUCAAGUUUGUCCGUAGGUCGAGAGAAGGCCAUGGAGGUGCCGCCACCGGCACCGCGGAGCUUUCUCUGUAGAG,0.116
GAACAGCUCACGAGAGGGUCCGUCGUAACCUGUUGAGUAACUAUGGAAGACUAUAUCAAAAUAGAGAAAAUUGGAGAAGGUACUUACGGUGUGGUGUAUAAGGGUAGACACAGAGUCACU,0.757
GCGGAGAAGGACUCUCUGGACCCCUCCUUCACGCACGCCCUGCGCUUGGUGAACCGAGAAAUAGAAAAGUUUCAAAAGGGAGAAGGCAAGGAGGAAGAGAAGUACAUUGACGUGGUGAUA,0.375
CCAACCUCUUCAGCCUCCAUCCCUGUGACCUCAUCAGUCUCAGAUCCUGGAGUGGGCUCCAUUUCUCCAGCUUCUCCAAAGAUCUCCCUGGCCCCCACAGAUGUAAAAGAACUCUCUACC,0.367
CUCGGCACCGGCACGCUUUACAUCGCGGAGAGCCGCCUGUCCUGGUUAGAUGGUUCGGGAUUAGGAUUCUCACUGGAAUACCCCACCAUUAGUUUACAUGCGGUGUCCAGGGAUCCAAAC,0.326
GAAGAAGAGUGCAGAGCUCGGAUCCGUUACGCACAAGAGCACGACAUCACUAAUUUCUAUAUGCUCACGCUAGAUAAAGAUCGAAUCAUUGAUGCUGGUCCUAAAGGGAACUACGCACGC,0.282
AAGUGGGGCGAUGAGGUGGAAUACAUGUUGGUAUCUUUUGAUCAUGAAAAUAAAAAAGUCCGGUUGGUCCUGUCUGGGGAGAAAGUUCUUGAAACUCUGCAAGAGAAGGGGGAAAGGACA,0.651
AGGGCCUUGCAGAAACUACAGGAGAACACCUAUAUAAAACUUGUGAUUUCCAACUUGGAGAAUAGUCUUCUUCAAUUCCAUAUUCAUGCGUGGCAUGAAUCAUCUCAUAUAUUCUUAUGA,0.126
CUCUCCAGUAGAAGCUGUGAGCACACCUAACACUCCUCGAAACCUUGCUGCCUGGAAAAUUAGCAUUCCGUAUGUAGACUUUUUUGAAGAUCCCUCCUCUGAAAGGAAAGAGAAGAAGGA,2.56
AACCUCCUUCCUACUGGUUUAGACUACACUUACAACAAGGAAAAUGCCCCUCGUGUGACCAUAGAUUGAGAUUUAUACCACAUACCACACAUAGCCACAGAAACAUCAUCUUGAAAUAAA,2.74

# Set 5 — technique: universal PBM; form: double-stranded DNA, one strand shown; medium: in vitro; tested at: not given; direction: higher = stronger binding
# Target: Sal-like protein 4, full length isoform B (SALL4, Homo sapiens, UniProt Q9UJQ4-2, residues 1-616)
# Setting: 8-mer, flanks averaged, mean of replicates
# Target sequence (chain): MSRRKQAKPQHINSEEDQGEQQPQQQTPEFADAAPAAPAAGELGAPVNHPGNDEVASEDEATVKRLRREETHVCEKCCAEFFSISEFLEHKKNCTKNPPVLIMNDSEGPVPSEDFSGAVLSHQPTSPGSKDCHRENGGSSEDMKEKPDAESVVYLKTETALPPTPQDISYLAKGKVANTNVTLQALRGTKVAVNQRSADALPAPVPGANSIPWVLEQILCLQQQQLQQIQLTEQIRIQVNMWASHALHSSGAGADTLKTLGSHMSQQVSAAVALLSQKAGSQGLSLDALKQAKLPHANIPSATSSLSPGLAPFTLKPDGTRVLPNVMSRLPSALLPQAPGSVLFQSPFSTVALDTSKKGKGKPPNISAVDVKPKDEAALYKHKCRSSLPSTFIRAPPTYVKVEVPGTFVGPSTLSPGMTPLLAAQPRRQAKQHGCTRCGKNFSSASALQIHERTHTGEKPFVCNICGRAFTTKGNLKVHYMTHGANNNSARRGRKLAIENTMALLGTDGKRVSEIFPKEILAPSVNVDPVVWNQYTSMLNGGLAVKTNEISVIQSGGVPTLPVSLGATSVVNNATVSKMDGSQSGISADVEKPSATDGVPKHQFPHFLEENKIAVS
Strand,E-score
AGCCCCCA,-0.252
GGTCCACA,-0.21
ATCGCGCG,-0.19
AAATTCAC,0.139
AAGGTCTG,-0.026
CTAAGGAA,-0.0224
TCTAATCA,0.141
CGAAGGCG,-0.177
GGCCCGCA,-0.194
AGAGTCGC,-0.218
CTATCGAG,-0.0588
CCTACGCA,-0.034
GAAACTTA,0.274
ATGAGCGG,-0.0958
GTCACAAC,-0.0689
AGACGGAT,-0.035

# Mixed results
Substance,target,assay,test system,conditions,how to read,endpoint,result
"PhoQ, residues 284 288 289 292 302 303 TTCLQL","PhoP, residues 12 14 15 18 19 NMSFL (Escherichia coli, UniProt P23836)","Sort-seq, refers to: YFP reporter",E. coli,"PhoQ-PhoP variant library, together with: 10 µM Mg2+","relative to: high Mg2+ state, higher = stronger signaling",fold induction,13.2

# A few entries again (set 1):
Strand,E-score
CAGGACCC,-0.0612
AGTTAGTA,-0.0653
AGCGTAGG,0.0511
ATAGAGAG,-0.232
ACTCACCT,-0.264
GAAGCATC,-0.148
TACTGCCA,-0.181
ACTACAGC,-0.129
AAGTGGTG,-0.146
GTACGCCA,0.076
